Measured values from different studies.
Values joined by “and” are separate records of one study, mostly repeats; a detail may differ. ± gives the spread as reported.
UCHL1: Ubiquitin carboxyl-terminal hydrolase isozyme L1 (UCHL1, Homo sapiens, UniProt P09936)
UniProt P09936, sequence (whole entry, looked up): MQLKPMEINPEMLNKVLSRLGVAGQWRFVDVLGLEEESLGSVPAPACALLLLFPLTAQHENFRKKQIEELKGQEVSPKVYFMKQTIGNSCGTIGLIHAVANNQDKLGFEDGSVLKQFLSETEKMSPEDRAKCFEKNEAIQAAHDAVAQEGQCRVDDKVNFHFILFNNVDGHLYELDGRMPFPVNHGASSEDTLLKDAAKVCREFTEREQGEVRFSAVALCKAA

C/C=C/C/C=C/CCC(=O)[C@H]1O[C@H]1C(N)=O gave a viability of 95.1% (MCF-10A; CellTiter-Glo; concentration not given, replicate C; relative to: normalised luminescence).
The labelling of CCc1ccc(NC(=O)C(C#N)=Cc2ccc(F)c(C#N)c2)cc1 is reported as 25.6% (UCHL1; covalent, intact protein LC-MS; 12.5 µM).
For COc1ccc(C(=O)OC2CCN(C)CC2)cc1, the inhibition was 2.8% (Trypanosoma cruzi; reporter translation, Renilla luciferase mRNA translation; cell-free extract; 40 µM; relative to: DMSO).
With C=CC1=C(C)c2cc3[n-]c(cc4nc(cc5[n-]c(cc1n2)c(C)c5C=C)C(C)=C4CCC(=O)O)c(CCC(=O)O)c3C.[Zn+2] the fold change was 2.5 (SH-SY5Y; RNA-seq, refers to: ANKRD1 mRNA; 5 µM, 5 h; relative to: untreated cells).
CC(=O)c1nn(-c2ccc(Cl)cc2)/c(=N/N=C(\C)c2ccc(NC(=O)c3ccccc3)cc2)s1 gave a toxicity of 80.8% and 95.9% (MCF7; 0.312 µM).
COC(=O)Nc1nc2ccc(C(=O)c3cccs3)cc2[nH]1 gave a sub-G1 cells of 2.9% (tsFT210 G2-synchronised; flow cytometry; 100 nM, 4 h after release at 32 °C).
With CCCN1CCN(c2ccc3[nH]c(-c4ccc5[nH]c(-c6cc(OC)c(OC)c(OC)c6)nc5c4)nc3c2)CC1 the growth percent was 7.58% (Malme-3M; SRB; 10 µM, 48 h).
Cc1cc(=O)[nH]n1-c1nc(-c2ccc(Cl)cc2)c2c(NC(=O)c3ccccc3)nnc-2[nH]1 has a growth percent of 107% (MDA-MB-231/ATCC; NCI60 SRB; 10 µM).
For O=C(/C=C/C=C/C=C/C1CCCCC1)NC1=C[C@@](O)(/C=C/C=C/C=C/C(=O)NC2=C(O)CCC2=O)[C@@H]2O[C@@H]2C1=O, the GI50 was 23.3 µM (TE-6; cell growth, CellTiter-Glo; 78 h).
N#Cc1ccc(C[C@@H](Nc2nnc(-c3ccc(F)cc3)o2)C(=O)N2CCc3ccccc32)cc1 gave an EC50 of > 50 µM (human neutrophils; calcium mobilization, agonist).
Cc1nn(-c2nc3c(F)cc(F)cc3s2)c(O)c1C(c1ccc(C(F)(F)F)cc1)c1c(C)nn(-c2nc3c(F)cc(F)cc3s2)c1O — result for “phospho-IRF3 to IRF3 ratio”: 0.342 and 0.525 and 0.665 (THP1-Dual; western blot; 20 µM, together with: HT-DNA; relative to: DMSO).
Cn1cc(-c2ccc(-c3cncc(Cl)c3N3CCC4(CCNC4=O)CC3)cc2)cn1: “log2 fold change” -1.91 (COLO 205; gene expression, microarray, refers to: AURKA mRNA; concentration not given, 2 h; relative to: untreated cells).
With C[C@]12CCCN1CC1=NNC(=O)c3cc(F)cc4[nH]c2c1c34 the EC50 was > 10 µM (MGC-803 gastric cancer cells; cell viability; concentration not given, together with: with temozolomide).
The luminescence signal of Cn1cc(-n2cnc3c(NCc4nc5cc(Cl)c(Cl)cc5[nH]4)nc(N4CCOCC4)nc32)cn1 is reported as 48700 a.u. and 43000 a.u. and 41900 a.u. (MDA-MB-468; cell viability, CellCounting-Lite; 666.7 nM, 37 °C; higher = more viable cells).
[Cl-].[Cl-].[Os+2].c1cnc2c(c1)ccc1cccnc12.c1cnc2c(c1)ccc1cccnc12.c1cnc2c(c1)ccc1cccnc12 has a GI50 of 15.2 µM (SK-MEL-28; sulforhodamine B; normoxia, together with: red light 633 nm).
The log TGI of Cc1cc(C)n(C(=S)[S][Au][PH](CCCCCC[PH]([Au][S]C(=S)n2nc(C)cc2C)(c2ccccc2)c2ccccc2)(c2ccccc2)c2ccccc2)n1 is reported as > -4 log10 M (MDA-MB-231/ATCC; cell growth, NCI-60 screen; breast cancer).
With Cl.O=C(CCl)NCC1CN(Cc2ccccc2)CC12CCC2 (stereo not shown) the labelling was 16.6% (UCHL1; covalent, intact protein LC-MS; 12.5 µM).
With NC(=O)c1ncn([C@@H]2O[C@H](CO)[C@@H](O)[C@H]2O)n1 the growth inhibition was 50% (FaDu; CCK-8; 10 µM, 96 h, parental cells, together with: cytarabine 40 nM).
The EC50 of COc1cnc2cccc(N3CCc4c(cc(Cn5ccnc5C)cc4-c4cn(C)nc4C(F)(F)F)C3=O)c2c1 is reported as > 30 µM (HuCCT-1; cell growth, inhibitor; 120 h).
For CC(C)(C)c1cc(/C=C(\C#N)C(N)=S)cc(C(C)(C)C)c1O, the EC50 was 2.7 µM (Toxoplasma gondii; parasite growth, luciferase reporter; HFF, tachyzoite; 72 h).
CCOC(=O)c1nn(-c2cccc(Cl)c2)/c(=N/N=C(\C)c2ccc(NC(=O)c3ccc(Cl)cc3)cc2)s1 has a cytotoxicity of 26.5% (MCF7; MTT; 0.078 µM).
NS(=O)(=O)C#Cc1ccccc1 has an EC50 of 8.66 µM (Toxoplasma gondii; parasite growth; HFF, bradyzoite, glutamine-induced).
With Cc1cc(C)nc(SCC(=O)Nc2ncc(Cc3cccc(OCc4cn(Cc5ccc(OCCN6CCOCC6)cc5)nn4)c3)s2)n1 the inhibition was 7.2 ± 7.4% (PC-3M-luc; colony formation, colony forming; 1 µM).
CCn1cc(-c2cc(Cn3ccnc3)cc3c2CCN([C@H](c2cc(OC)ccn2)C2CC2)C3=O)c(C(F)(F)F)n1 gave an EC50 of 0.315 µM (MDA-MB-453; cell growth, inhibitor; 120 h).
The viability of Nc1cccc2c1C(=O)N(C1CCC(=O)NC1=O)C2=O (stereo not shown) is reported as 77% (bone marrow CD138+ myeloma cells; XTT; 1.2 µM, mean of three patients).

For quick reference, copied from above:
The log TGI of Cc1cc(C)n(C(=S)[S][Au][PH](CCCCCC[PH]([Au][S]C(=S)n2nc(C)cc2C)(c2ccccc2)c2ccccc2)(c2ccccc2)c2ccccc2)n1 is reported as > -4 log10 M (MDA-MB-231/ATCC; cell growth, NCI-60 screen; breast cancer).
Cc1cc(=O)[nH]n1-c1nc(-c2ccc(Cl)cc2)c2c(NC(=O)c3ccccc3)nnc-2[nH]1 has a growth percent of 107% (MDA-MB-231/ATCC; NCI60 SRB; 10 µM).
For O=C(/C=C/C=C/C=C/C1CCCCC1)NC1=C[C@@](O)(/C=C/C=C/C=C/C(=O)NC2=C(O)CCC2=O)[C@@H]2O[C@@H]2C1=O, the GI50 was 23.3 µM (TE-6; cell growth, CellTiter-Glo; 78 h).
NS(=O)(=O)C#Cc1ccccc1 has an EC50 of 8.66 µM (Toxoplasma gondii; parasite growth; HFF, bradyzoite, glutamine-induced).
